# Measurements gathered from unrelated publications.
# Every numbered part comes from another study and shows a few of its results, in no order.

# Block 1
# Target: Phosphate system positive regulatory protein PHO4, full length, GST-tagged (PHO4, Saccharomyces cerevisiae, UniProt P07270, residues 1-312)
# Method: competition protein-binding microarray
# Form: double-stranded DNA, one strand shown
# Matrix: in vitro
# Tested at: 2 µM
# Setting: whole 60-bp probe, lowest competitor level
# With: Cbf1 competitor, 0.05 µM
# Reading: higher = stronger binding
# Target sequence (chain): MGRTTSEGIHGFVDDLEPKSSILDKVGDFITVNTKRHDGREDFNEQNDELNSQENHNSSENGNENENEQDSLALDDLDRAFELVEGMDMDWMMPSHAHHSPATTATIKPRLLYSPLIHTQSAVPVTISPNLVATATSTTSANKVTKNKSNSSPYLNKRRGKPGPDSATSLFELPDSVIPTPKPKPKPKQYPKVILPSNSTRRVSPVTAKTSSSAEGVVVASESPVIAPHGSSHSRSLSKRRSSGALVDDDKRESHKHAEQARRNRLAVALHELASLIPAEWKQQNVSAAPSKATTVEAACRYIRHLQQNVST
Strand,fluorescence intensity
GGCGTCGTACAAGAGAACGTGGGTACTTTTTAGGCTGTCTTGATTCGCTTGACGCTGCTG,13700 a.u.
CTAACGAAGGTTTGTCACCGCACTTACAAGCCAAGTGTCTTGATTCGCTTGACGCTGCTG,3730 a.u.
CTGGCCCACTTCATGGGCGTGCTAATCAAGAAGTACGTCTTGATTCGCTTGACGCTGCTG,7940 a.u.
GTCTTGTCTCATTGCCTCGTGGGTGTCCCCACTTCAGTCTTGATTCGCTTGACGCTGCTG,11900 a.u.

# Block 2
# Target: Sox-I, HMG box (Salpingoeca helianthica)
# Method: Spec-seq
# Form: double-stranded DNA, one strand shown
# Matrix: in vitro
# Tested at: not given
# Setting: whole probe, mean of replicates
# Relative to: not given
# Reading: lower = stronger binding
# Construct (chain): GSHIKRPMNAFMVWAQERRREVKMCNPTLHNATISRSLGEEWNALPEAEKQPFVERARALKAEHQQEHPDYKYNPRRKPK
Strand,relative binding energy [ln ratio]
GAGTCGTCTCGTCAGCACAAGAGTTCCGTAGAGCACTCAGGTC,-0.277
GAGTCGTCTCGTCAGCACCGCCGTTCCGTAGAGCACTCAGGTC,0.708
GAGTCGTCTCGTCAGCACACATGTTCCGTAGAGCACTCAGGTC,-0.642
GAGTCGTCTCGTCAGCACCATTTAACCGTAGAGCACTCAGGTC,0.533

# Block 3
# Target: Histone acetyltransferase KAT6A, both winged helices, GST fusion (KAT6A, Homo sapiens, UniProt Q92794, residues 1-181)
# Method: protein binding microarray
# Form: double-stranded DNA, one strand shown
# Matrix: in vitro
# Tested at: not given
# Setting: 8-mer, flanks averaged, mean of 2 arrays, mostly near background
# Relative to: not given
# Reading: higher = stronger binding
# Residues (chain): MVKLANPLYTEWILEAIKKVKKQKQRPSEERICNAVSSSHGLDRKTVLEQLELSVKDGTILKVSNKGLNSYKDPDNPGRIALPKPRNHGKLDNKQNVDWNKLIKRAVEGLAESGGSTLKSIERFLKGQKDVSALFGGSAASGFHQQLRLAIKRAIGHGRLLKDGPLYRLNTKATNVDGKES
Strand,E-score
ACTAGGTC,0.0408
CCCACCAA,-0.234
GATTGTGC,-0.0163
ACCAATCG,-0.0885
TCGTGAGA,0.0576

# Mixed results
Molecule,target,assay,system,conditions,scale,endpoint,value
"PhoQ, residues 284 288 289 292 302 303 AMDMFI","PhoP, residues 12 14 15 18 19 LYHSL (Escherichia coli, UniProt P23836)","Sort-seq, refers to: YFP reporter",E. coli,"PhoQ-PhoP variant library, with: 10 µM Mg2+","relative to: high Mg2+ state, higher = stronger signaling",fold induction,0.344
